Experimental data collected from several papers.
Every numbered part comes from another study and shows a few of its results, in no order.
Chain of UniProt Q6PHR2 (whole entry, looked up): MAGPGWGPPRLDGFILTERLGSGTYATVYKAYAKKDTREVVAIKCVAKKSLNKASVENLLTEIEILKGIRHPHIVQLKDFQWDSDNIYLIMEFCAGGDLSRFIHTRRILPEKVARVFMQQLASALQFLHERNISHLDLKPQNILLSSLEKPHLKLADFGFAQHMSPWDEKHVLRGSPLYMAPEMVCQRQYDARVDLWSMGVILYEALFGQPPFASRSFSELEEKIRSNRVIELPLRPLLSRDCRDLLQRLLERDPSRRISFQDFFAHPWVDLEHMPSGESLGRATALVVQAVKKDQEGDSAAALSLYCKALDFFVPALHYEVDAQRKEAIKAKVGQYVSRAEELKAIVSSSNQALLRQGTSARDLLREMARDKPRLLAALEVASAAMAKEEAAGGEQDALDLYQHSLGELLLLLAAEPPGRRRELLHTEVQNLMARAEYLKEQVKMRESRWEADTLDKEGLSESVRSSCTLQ
Chain of UniProt Q8IYT8 (whole entry, looked up): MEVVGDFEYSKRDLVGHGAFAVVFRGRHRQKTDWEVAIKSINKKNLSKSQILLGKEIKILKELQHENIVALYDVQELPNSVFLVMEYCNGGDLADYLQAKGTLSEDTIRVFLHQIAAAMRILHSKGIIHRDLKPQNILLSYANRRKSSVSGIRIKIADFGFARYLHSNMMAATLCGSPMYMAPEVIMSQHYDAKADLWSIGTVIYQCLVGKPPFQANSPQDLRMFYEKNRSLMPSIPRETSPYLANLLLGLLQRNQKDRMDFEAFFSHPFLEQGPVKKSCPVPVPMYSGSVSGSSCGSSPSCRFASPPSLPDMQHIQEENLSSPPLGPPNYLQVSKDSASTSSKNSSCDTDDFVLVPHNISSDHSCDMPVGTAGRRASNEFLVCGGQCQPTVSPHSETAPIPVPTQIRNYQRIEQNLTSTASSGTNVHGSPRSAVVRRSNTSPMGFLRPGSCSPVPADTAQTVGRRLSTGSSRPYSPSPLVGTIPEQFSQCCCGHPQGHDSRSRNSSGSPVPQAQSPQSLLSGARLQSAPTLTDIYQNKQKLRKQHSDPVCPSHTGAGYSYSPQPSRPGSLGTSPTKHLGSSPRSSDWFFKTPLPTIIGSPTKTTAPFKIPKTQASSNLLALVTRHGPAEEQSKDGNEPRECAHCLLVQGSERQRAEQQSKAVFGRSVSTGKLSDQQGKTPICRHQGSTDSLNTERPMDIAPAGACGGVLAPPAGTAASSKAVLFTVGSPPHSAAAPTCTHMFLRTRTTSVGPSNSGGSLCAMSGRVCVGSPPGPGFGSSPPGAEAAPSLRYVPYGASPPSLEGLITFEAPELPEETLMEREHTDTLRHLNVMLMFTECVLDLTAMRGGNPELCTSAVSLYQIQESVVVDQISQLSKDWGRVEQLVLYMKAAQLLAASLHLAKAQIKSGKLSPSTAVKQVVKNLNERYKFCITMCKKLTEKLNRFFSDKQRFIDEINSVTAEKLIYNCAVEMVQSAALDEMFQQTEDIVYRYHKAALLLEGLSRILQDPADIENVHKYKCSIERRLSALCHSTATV
Chain of UniProt P37023 (whole entry, looked up): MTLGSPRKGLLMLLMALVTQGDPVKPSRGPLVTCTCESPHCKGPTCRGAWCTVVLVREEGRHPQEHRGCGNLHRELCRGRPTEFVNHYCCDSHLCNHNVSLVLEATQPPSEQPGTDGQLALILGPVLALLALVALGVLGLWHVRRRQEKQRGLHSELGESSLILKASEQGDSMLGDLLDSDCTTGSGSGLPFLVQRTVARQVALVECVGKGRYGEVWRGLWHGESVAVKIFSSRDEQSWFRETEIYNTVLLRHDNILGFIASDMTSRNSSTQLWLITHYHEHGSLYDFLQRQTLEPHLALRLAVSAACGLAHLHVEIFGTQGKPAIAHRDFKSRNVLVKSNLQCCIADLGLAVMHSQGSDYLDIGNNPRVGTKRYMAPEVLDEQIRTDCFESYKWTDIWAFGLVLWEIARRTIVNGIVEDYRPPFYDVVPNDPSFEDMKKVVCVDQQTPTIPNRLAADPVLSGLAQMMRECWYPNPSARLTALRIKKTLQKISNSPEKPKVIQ
Chain of UniProt Q8WTQ7 (whole entry, looked up): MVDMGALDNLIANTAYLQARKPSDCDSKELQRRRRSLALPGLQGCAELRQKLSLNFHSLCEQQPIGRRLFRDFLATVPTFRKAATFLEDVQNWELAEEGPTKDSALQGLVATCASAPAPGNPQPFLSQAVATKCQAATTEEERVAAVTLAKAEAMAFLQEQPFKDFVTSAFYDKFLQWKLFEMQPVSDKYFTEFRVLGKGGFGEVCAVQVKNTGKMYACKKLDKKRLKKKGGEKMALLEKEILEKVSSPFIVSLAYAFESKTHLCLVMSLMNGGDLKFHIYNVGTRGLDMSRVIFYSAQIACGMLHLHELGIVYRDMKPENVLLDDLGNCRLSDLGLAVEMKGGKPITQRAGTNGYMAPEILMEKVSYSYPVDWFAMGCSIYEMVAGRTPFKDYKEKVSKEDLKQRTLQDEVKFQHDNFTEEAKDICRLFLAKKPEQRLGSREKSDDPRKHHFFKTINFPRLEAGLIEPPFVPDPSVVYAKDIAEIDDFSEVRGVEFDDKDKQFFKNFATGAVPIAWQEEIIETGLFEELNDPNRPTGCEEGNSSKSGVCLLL
Chain of UniProt P22607 (whole entry, looked up): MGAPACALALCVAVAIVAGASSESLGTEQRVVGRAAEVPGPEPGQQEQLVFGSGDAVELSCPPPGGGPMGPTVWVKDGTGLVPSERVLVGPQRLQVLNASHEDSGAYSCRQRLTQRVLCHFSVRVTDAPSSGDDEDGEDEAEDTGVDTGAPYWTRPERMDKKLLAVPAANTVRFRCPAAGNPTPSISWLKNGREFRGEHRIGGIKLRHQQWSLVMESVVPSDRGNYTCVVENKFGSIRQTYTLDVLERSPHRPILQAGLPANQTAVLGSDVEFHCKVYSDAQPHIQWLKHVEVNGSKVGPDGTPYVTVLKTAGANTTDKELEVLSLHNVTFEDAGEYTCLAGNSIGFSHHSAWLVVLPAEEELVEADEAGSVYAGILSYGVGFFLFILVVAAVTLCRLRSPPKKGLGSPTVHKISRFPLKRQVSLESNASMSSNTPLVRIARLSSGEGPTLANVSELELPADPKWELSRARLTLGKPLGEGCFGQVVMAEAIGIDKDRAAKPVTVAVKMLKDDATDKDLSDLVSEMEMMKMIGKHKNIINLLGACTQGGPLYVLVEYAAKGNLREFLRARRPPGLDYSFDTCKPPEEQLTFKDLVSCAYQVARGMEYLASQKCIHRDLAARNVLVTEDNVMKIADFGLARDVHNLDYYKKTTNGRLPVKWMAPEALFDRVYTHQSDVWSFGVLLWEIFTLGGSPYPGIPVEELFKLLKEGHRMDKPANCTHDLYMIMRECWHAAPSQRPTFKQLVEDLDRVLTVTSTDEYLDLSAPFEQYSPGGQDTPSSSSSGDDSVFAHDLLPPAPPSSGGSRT

Set 1 — technique: RNA Bind-n-Seq; molecule type: RNA; sample: in vitro; concentration: 1 µM; setting: whole 134-nt RNA, ends assumed; added: 150 mM KCl; baseline: input library; direction: higher = stronger binding
Target: Ras GTPase-activating protein-binding protein 1, C-terminal RGG region (G3BP1, Homo sapiens, UniProt Q13283)
Chain of UniProt Q13283 (whole entry, looked up): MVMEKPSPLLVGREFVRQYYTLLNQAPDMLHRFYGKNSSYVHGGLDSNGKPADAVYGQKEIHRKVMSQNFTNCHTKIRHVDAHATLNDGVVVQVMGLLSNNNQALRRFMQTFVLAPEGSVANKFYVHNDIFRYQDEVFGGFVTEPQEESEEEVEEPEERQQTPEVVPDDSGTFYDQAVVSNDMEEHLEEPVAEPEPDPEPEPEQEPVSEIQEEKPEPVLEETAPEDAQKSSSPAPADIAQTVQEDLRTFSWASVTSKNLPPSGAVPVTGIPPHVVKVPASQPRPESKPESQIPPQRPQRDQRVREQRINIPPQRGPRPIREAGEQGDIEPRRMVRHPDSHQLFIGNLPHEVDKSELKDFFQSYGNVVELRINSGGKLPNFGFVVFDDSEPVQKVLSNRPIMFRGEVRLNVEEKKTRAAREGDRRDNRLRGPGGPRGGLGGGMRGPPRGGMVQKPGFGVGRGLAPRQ
All sequences stand within: GGGAGUUCUACAGUCCGACGAUC … UGGAAUUCUCGGGUGUCAAGG
Sequence	log2 enrichment
UAACUUUAGAGGAGGAUCUGAUGGAUAUGGCAGUGGACGUGGAUUUGGGGAUCGCUAUAAUGGGUAUGGAGGAGGACCUGGAGGUGGCAA	-0.297
ACCAUGCAGGUGGGCAUCUUUGGGAACUGGGGCAAGGGGGGGAUAGGGAGGGGGGUAACACUUUGGGAACAGGUGGUCCCAGGUCGUUUC	-1.48
ACCAUGCAGGUGGGCAUCUUAAAGAAGUGGGGCAAGGGGGGGAUAGGGAGGGGGGUAACACUUUGGGAACAGGUGGUCCCAGGUCGUUUC	-1.03
UGUGCUACACAUCGUAUGUACCGAAUCGGGUUUUUUUGGGGUUUUUUUGGGGUUUUUUUGGGAAAGUAUUAUGUUACGCCGUUCGGAUCU	-0.484
GCAGGAAGUAAAAACAAAUGGAAAUGCUUCGGAUAGUGGCAGGGGUGGGGGUUGCUAAGGAAAGGGUGGGAUGGGAGUGGGUAAAGAGGU	1.63
CACAGACAACACGCACCCACACAGACACAGAGGGAAGGGGUUGGGAUGGGGACAGGGUGCACAGCAGGGCGGGGUAGGACCCCAGCCCAU	-1.06
CUCAAGUCCUGUGCUACACAUCGUAUGUACCGAAUCGGUUUUUGGUUUGGUGGAAAGUAUUAUGUUACGCCGUUCGGAUCUGCACUUCCA	-1.31
GCAGGAAGUAAAAACAAAUGGAAAUGCUUCGGAUAGUGGCAGGGGUGGGGGUUGCUAAGGAAAGGGUGGGAUGGGAUUGGGUAAAGAGUU	2.32

Set 2 — technique: competition with immobilised ligand; concentration: 1 µM
SMILES: O=C(Nc1ccc(Oc2ccc(F)cc2)cc1)N1CCc2ncccc2[C@H]1c1ccc(F)cc1
target	effect on	remaining binding [%]
Serine/threonine-protein kinase Chk2 (CHEK2, Homo sapiens, UniProt O96017)	cell-free assay	94
Serine/threonine-protein kinase WNK1 (WNK1, Homo sapiens, UniProt Q9H4A3)	cell-free assay	96
Mitogen-activated protein kinase kinase kinase 20 (MAP3K20, Homo sapiens, UniProt Q9NYL2)	cell-free assay	100
Activin receptor type-1-like (ACVRL1, Homo sapiens, UniProt P37023)	binding	81

Set 3 — technique: universal PBM; molecule type: double-stranded DNA, one strand shown; sample: in vitro; concentration: 600 nM; direction: higher = stronger binding
Target: Sal-like protein 4, full length isoform A (SALL4, Homo sapiens, UniProt Q9UJQ4, residues 1-1053)
Chain of UniProt Q9UJQ4 (whole entry, looked up): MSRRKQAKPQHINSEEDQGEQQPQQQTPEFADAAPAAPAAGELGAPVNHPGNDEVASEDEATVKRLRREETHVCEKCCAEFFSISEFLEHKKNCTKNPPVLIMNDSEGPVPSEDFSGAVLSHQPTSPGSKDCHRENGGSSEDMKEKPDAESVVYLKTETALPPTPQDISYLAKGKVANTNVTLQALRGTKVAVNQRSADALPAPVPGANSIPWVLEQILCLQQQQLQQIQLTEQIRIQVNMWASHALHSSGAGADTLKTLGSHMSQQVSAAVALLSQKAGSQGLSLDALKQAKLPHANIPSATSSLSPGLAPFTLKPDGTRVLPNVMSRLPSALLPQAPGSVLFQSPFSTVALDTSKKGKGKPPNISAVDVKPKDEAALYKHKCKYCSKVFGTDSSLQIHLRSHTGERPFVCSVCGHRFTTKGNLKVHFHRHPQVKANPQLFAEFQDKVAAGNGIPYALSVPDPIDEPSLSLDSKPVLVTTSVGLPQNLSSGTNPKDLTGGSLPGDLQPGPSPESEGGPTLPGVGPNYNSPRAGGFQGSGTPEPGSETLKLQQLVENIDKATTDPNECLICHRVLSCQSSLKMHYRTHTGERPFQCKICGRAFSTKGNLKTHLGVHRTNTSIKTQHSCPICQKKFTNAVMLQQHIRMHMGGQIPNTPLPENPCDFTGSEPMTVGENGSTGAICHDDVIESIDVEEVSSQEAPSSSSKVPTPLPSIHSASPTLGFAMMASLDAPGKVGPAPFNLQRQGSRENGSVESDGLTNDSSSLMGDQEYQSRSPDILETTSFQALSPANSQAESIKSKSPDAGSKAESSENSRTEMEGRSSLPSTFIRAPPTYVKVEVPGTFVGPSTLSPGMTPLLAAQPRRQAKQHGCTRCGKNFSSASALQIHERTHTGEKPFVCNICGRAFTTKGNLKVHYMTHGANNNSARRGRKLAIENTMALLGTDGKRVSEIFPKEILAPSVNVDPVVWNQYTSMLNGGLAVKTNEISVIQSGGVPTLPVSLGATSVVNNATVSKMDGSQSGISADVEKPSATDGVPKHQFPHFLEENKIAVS
Setting: 8-mer, flanks averaged, mean of replicates
Sequence	E-score
CCTAGCAG	-0.159
ATCACCGC	-0.0716
CATGCCCG	-0.196
CCTCCAAC	-0.122
TACTCCCA	0.0826
CACTTGTC	-0.0273
CATCGTAA	0.149
AGTCTGTG	-0.0982

Set 4 — SMILES: Cc1cc2ncc(-c3ccccc3)nc2cc1C; effect on: enzyme activity; mode: inhibitor; concentration: 0.5 µM; baseline: control
target	remaining activity
Dual specificity mitogen-activated protein kinase kinase 2 (MAP2K2, Homo sapiens, UniProt P36507)	97.6%
Casein kinase I isoform gamma-3 (CSNK1G3, Homo sapiens, UniProt Q9Y6M4)	99%
Serine/threonine-protein kinase ULK2 (ULK2, Homo sapiens, UniProt Q8IYT8)	108%
Macrophage-stimulating protein receptor (MST1R, Homo sapiens, UniProt Q04912)	99.4%
Serine/threonine-protein kinase ULK3 (ULK3, Homo sapiens, UniProt Q6PHR2)	86.4%
Activin receptor type-1B (ACVR1B, Homo sapiens, UniProt P36896)	97.7%
Tyrosine-protein kinase JAK3 (JAK3, Homo sapiens, UniProt P52333)	101%
Rhodopsin kinase GRK7 (GRK7, Homo sapiens, UniProt Q8WTQ7)	102%
Tyrosine-protein kinase Mer (MERTK, Homo sapiens, UniProt Q12866)	81.4%
Serine/threonine-protein kinase Nek1 (NEK1, Homo sapiens, UniProt Q96PY6)	96.1%
Fibroblast growth factor receptor 3 (FGFR3, Homo sapiens, UniProt P22607)	98%
Serine/threonine-protein kinase Nek6 (NEK6, Homo sapiens, UniProt Q9HC98)	101%

Repeated from above (set 1):
Sequence	log2 enrichment
CUCAAGUCCUGUGCUACACAUCGUAUGUACCGAAUCGGUUUUUGGUUUGGUGGAAAGUAUUAUGUUACGCCGUUCGGAUCUGCACUUCCA	-1.31
GCAGGAAGUAAAAACAAAUGGAAAUGCUUCGGAUAGUGGCAGGGGUGGGGGUUGCUAAGGAAAGGGUGGGAUGGGAUUGGGUAAAGAGUU	2.32
